Results collected from several papers.
A part holds a random share of what one study measured.

Series 1
Target: RNA binding protein fox-1 homolog 2, RRM domain, GST-SBP tag (RBFOX2, Homo sapiens, UniProt O43251-10, residues 100-194)
Method: RNA Bind-n-Seq
Form: RNA
Sample: in vitro
Tested at: 365 nM
Setting: natural RNA segment, single round, ends assumed
Relative to: no-protein control
Reading: higher = stronger binding
Target sequence (chain): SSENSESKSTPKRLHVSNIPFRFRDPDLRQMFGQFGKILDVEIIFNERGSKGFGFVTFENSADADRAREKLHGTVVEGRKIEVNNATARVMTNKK
| Sequence | RBNS enrichment (R) |
| --- | --- |
| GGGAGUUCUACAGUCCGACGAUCUUAUAUUUCUCGUAUUUAAUAUGGGUGAACACCAACUUUUAUUUGGAAUAAUAAUUUUCCUCCUAAACAAAAACACAUUGAGUUUAAGUCUCUGACUCUUGCCUUUCCACUGGAAUUCUCGGGUGCCAA | 0.495 |
| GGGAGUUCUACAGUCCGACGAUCUUGUACAAAAAGUAAAGAGUAUCCUAAAGAUUGUAUUCAUUGUAAUCAAGUAAUGCAAUCAUCUCUCCUCUCUUGAAAUCUUGCUGGACCUCUUAGGCUACAAUAAACUGUGGAAUUCUCGGGUGCCAA | 0.315 |
| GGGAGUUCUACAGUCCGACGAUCUUAAAUUUUUGUAAAUAUUUUGAUUUAAUGUGUCUUAGAUCCUCAUUAUUUUAAUACAGGAAAAGAAAAGAUUUAGUAAUUUCUUACCAUGCUAAUAUGUAAAGUUCAUGUGGAAUUCUCGGGUGCCAA | 0.73 |
| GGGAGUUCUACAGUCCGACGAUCGGGCAGCAAAACAAGUGACAUGAAGGGAGGGUCCCUGUGUGUGUGUGUGCUGAUGUUUCCUGGGUGCCCUGGCUCCUUGCAGCAGGGCUGGGCCUGCGAGACCCAAGGCUUGGAAUUCUCGGGUGCCAA | 0.68 |
| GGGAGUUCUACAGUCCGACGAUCGGCAGGGUGGAUGCCACAGGCCCCUCUGGCUCCCAGGUGCUGCUUCUCCACAGGUGCGGCCUGGCCCGGCCUCCUAAAGGCCACACCCUCCCCACGCACUUCCCAGGCCAUGGAAUUCUCGGGUGCCAA | 0.346 |
| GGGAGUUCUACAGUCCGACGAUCGAGGAAGAAGGAAUUCACUAGGUUUUAACAAUGUUUCUCCUGCUCCUUUCUUCUCCCUAUCAGAGCUGACCCUACAAACACCUGUCCCCUGAGUUGUGUUGAAGUCCCCUUGGAAUUCUCGGGUGCCAA | 0.35 |
| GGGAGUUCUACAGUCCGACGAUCGGGAGUUCCCAGCGCGAAAGGUCUGCUCCCGUUCCUCUGUCUCUGUGAAUAAAUGUGAGUUCGUGCACCCCCGAGUGAGGCUGUGUGUGGGGGAUUGGGUGAGUCAGGAUUGGAAUUCUCGGGUGCCAA | 1.15 |
| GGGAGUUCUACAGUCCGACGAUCUUUAUGCUAGUGAACAAAGUAGCAAUAAAUGUUCAUUUUUGGAUGGCAGUACACAUUGUUAACAAUCGUGUAAUUAUAAUAAAUAUGUCUACCUACUCCUUGAACCAUGAUGGAAUUCUCGGGUGCCAA | 0.331 |
| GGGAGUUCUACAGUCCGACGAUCCCUCCACAGGGUUCCUGUGUUUCACAUUUACGAUAUAAAUUGAUACCCAUCUUCAGCUGAGGUUGUUAUGGGGGGCUGGAAUCACGUGUUUUUUAAACCUGAUAUUUUCAUGGAAUUCUCGGGUGCCAA | 0.267 |
| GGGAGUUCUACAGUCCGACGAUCAGCAGCACCUGUGGUCUGGCCUCUGCCUUGCCCUCAUGCAGCCAUGAGCUGCCUUAAGGGGAAGAGUGCCAAUGGUCUUCGUGGACUUCAGAAGUGACUUUGAGACUGUUUGGAAUUCUCGGGUGCCAA | 1.31 |
| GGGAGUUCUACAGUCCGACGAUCAUAUAAAGCAUACUUUCGAAAUACAAAGGACACUCAUUACAACCCCCAAACUCAGAUCCAGGUAUGAUAGUUUAUGCCUAUAAUCCCAGCACCAGGGAAGCUAAGGUGGAUGGAAUUCUCGGGUGCCAA | 0.869 |
| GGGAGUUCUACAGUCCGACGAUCUCCUUUUCCACCCCACACCCUGAAGCCAUUGGAAAACUGGCUUCCUGUGCACUUCUAGAAUCCCAGCAGCCAAGAGCCGUUGGGGCAGGAGGGCCUGUGGUGACCUACUGUGGAAUUCUCGGGUGCCAA | 0.638 |

Series 2
Target: Histone acetyltransferase KAT6A, both winged helices, GST fusion (KAT6A, Homo sapiens, UniProt Q92794, residues 1-181)
Method: protein binding microarray
Form: double-stranded DNA, one strand shown
Sample: in vitro
Tested at: not given
Setting: 8-mer, flanks averaged, mean of 2 arrays, mostly near background
Relative to: not given
Reading: higher = stronger binding
Residues (chain): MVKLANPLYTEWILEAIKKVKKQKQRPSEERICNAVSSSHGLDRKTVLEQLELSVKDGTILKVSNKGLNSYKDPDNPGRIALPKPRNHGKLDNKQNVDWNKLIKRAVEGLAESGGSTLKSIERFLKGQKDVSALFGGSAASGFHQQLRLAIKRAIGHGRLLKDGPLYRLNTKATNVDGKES
| Sequence | E-score |
| --- | --- |
| TTAACAAA | 0.108 |
| CTTGTGGA | -0.141 |
| GCAACCGA | -0.0701 |
| ATCTGTGG | -0.143 |
| GCACAAAC | -0.0872 |
| AGAACCCC | -0.203 |
| GAGGAAGA | -0.143 |
| CTTTCAGC | 0.123 |
| CATATATC | -0.00165 |
| ACAAGCCG | 0.193 |
| ATCTCGAA | 0.0477 |
| CAACTAAG | -0.157 |
| CGCGGACG | 0.319 |
| CGACGATA | 0.0517 |
| GCATTTGA | -0.0157 |
| ACTTTTTG | -0.141 |

Series 3
Target: Prothrombin, mature alpha-thrombin (F2, Homo sapiens, UniProt P00734)
Method: aptamer microarray, sandwich
Form: DNA with 2'F-ANA
Sample: in vitro
Tested at: 200 nM
Setting: whole 15-mer aptamer, many near background
Together with: Cy3 exosite-II aptamer, 400 nM
Reading: higher = stronger binding
Sequence: GGTTGGTGTGGTTGG
| Modification | mean fluorescence intensity |
| --- | --- |
| 2'F-ANA at 1 3 7 8 9 11 12 | 479 a.u. |
| 2'F-ANA at 1 4 5 8 14 | 50.3 a.u. |
| 2'F-ANA at 2 3 7 13 14 | 471 a.u. |
| 2'F-ANA at 1 2 3 5 13 14 | 71.4 a.u. |
| 2'F-ANA at 8 9 11 12 13 14 15 | 211 a.u. |
| 2'F-ANA at 1 9 11 12 14 15 | 62.7 a.u. |
| 2'F-ANA at 1 3 4 5 6 8 9 10 | 66.8 a.u. |
| 2'F-ANA at 1 2 3 8 9 11 12 14 | 91.5 a.u. |
| 2'F-ANA at 1 5 6 8 10 12 13 14 | 48.9 a.u. |
| 2'F-ANA at 1 2 4 5 6 8 9 11 14 | 54.7 a.u. |
| 2'F-ANA at 2 4 5 6 11 15 | 55.2 a.u. |
| 2'F-ANA at 1 2 4 7 8 9 12 15 | 357 a.u. |
| 2'F-ANA at 2 3 4 5 10 11 12 13 | 51.4 a.u. |
| 2'F-ANA at 3 6 9 10 11 15 | 419 a.u. |
| 2'F-ANA at 2 5 6 8 9 15 | 84.3 a.u. |
| 2'F-ANA at 1 2 3 4 6 7 8 9 11 14 15 | 63.6 a.u. |
| 2'F-ANA at 2 3 4 5 7 8 9 10 12 | 63.2 a.u. |
| 2'F-ANA at 1 3 4 5 7 9 13 | 112 a.u. |
| 2'F-ANA at 5 7 8 12 13 15 | 137 a.u. |
| 2'F-ANA at 1 2 4 5 6 7 8 9 12 13 15 | 73.7 a.u. |

Series 4
Target: Centromere-binding protein 1, full length, His-tagged (CBF1, Saccharomyces cerevisiae, UniProt P17106, residues 1-351)
UniProt P17106, sequence (whole entry, looked up): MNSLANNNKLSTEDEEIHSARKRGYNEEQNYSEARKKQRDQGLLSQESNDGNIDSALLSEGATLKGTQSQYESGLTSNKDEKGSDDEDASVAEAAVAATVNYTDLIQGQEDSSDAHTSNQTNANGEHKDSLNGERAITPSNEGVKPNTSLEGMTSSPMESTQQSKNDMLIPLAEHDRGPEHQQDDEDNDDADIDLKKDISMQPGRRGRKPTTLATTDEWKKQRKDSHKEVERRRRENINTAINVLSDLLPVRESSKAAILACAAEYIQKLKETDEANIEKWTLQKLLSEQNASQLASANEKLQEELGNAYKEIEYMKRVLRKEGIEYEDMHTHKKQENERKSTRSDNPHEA
Method: competition protein-binding microarray
Form: double-stranded DNA, one strand shown
Sample: in vitro
Tested at: 2 µM
Setting: whole 60-bp probe, lowest competitor level
Together with: Pho4 competitor, 0.05 µM
Reading: higher = stronger binding
| Sequence | fluorescence intensity [a.u.] |
| --- | --- |
| AAGGTTTCGCCGTAGAACGTGCTTTCCAGTTCATGGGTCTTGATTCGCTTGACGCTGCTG | 112 |
| CATACCCAACCTTGTCACTTGACTTAAGATATTTGTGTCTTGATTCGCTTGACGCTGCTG | 192 |
| ATGGCACTCATTGATGGCGTGATGGAGCAGAACCTCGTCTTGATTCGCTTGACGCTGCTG | 93.4 |
| TCAACGCCTTTTACCTTGTCCTTTGATGCCTGTCTCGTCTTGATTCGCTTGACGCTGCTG | 70 |
| TCTATGTAACTACGTCTTGTGATGACCGGTATAGCTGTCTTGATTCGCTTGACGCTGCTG | 87 |
| CGGGGTTAAGTTTGATAAGTGGGTGGCTTGCAGCAGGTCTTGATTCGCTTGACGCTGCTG | 70.4 |
| AAAGACAGGACTTCGAACGTGTAGGACTTAGACCAGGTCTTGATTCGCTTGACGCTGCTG | 64.7 |
| CTTTCCCGATCTTGGGCTGTGGGTGTAGCACATTTGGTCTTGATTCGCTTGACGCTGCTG | 71.4 |
| CTTCTGTAAATTTGAGCGGTGGGTGGACGCGCCCCGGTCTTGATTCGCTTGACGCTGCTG | 80.5 |
| CTTTCCCGATCTTTTCACGTGCTCTTAGCACATTTGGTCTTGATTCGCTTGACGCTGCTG | 1320 |
| TGAAAATTAGACTGTCATGTGATGAGTAATATCGTCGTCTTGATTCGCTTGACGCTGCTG | 2680 |
| CGGGGTTAAGTTTGTCACTTTACTTGCTTGCAGCAGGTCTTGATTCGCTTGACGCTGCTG | 60.1 |
| CGTCCTAGTGATTGGCACGTGTTTTCCATGAGGAAGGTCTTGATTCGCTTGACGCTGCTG | 2030 |
| CTTCTGTAAATTTGACACGTGTTTTGACGCGCCCCGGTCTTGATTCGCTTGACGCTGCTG | 1670 |
| CTTCTTCAGGGTTTGCACGTTGCCTTCATTCGGTTCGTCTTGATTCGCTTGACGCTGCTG | 89.9 |
| TTTCGAACGGAGCCGTGCGTGCTTTGAGTTTTTTGAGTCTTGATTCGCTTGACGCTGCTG | 61 |
| TGCTATGTCCCTTCGACCGTGATGGAATGGGAGTGGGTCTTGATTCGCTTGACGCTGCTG | 74.2 |
| TTATCATTGAAAATTCACGTGATGGCAATATTCCGGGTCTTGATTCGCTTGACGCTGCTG | 4660 |
| CATACCCAACCTTGCAGTGTGGGTGAAGATATTTGTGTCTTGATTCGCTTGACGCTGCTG | 66.2 |
| GGATGAGTCAAAAAGCATGTGACAGTGAAATAATCAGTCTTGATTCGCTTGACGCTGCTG | 741 |
| TATCTTGACTATTGCCACGTTGCGGTAGGTGGTACGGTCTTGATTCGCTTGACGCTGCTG | 65.9 |
| GTCTTGTCTCATTGCTGGGTGGGTGTCCCCACTTCAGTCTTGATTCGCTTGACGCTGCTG | 78.8 |
| CATACCCAACCTTTTCACGTGAAGTAAGATATTTGTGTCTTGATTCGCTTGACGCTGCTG | 815 |
| CAGTATCATCGTCATTGGTAGTATTCACTAGGGGACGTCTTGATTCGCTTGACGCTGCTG | 80.2 |
| CGGGGTTAAGTTTGATGCGTGGGTGGCTTGCAGCAGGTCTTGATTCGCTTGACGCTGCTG | 89.3 |

Excerpt of the above (series 3):
| Modification | mean fluorescence intensity |
| --- | --- |
| 2'F-ANA at 2 5 6 8 9 15 | 84.3 a.u. |
| 2'F-ANA at 1 5 6 8 10 12 13 14 | 48.9 a.u. |
| 2'F-ANA at 1 3 4 5 7 9 13 | 112 a.u. |
| 2'F-ANA at 5 7 8 12 13 15 | 137 a.u. |
